{"data": "Measurements of several laboratories", "note": "Each numbered part is a random draw from the data of one study; scales do not carry over between parts. Changes are numbered by the printed parent chain."}
{"data": "Sample 1", "target": "Interferon regulatory factor 3, full length, phosphomimetic (IRF3, Homo sapiens, UniProt Q14653, residues 1-427, S386D/S396D/S398D/S402D/T404D/S405D)", "technique": "protein-binding microarray", "form": "double-stranded DNA, one strand shown", "medium": "in vitro", "concentration": "2540 nM top", "setting": "60-bp whole probe", "added": "salmon DNA 0.4 mg/ml", "reference": "random background probes", "direction": "higher = stronger binding", "all sequences stand within": "GCCTAGCAC … GTCTTGATTCGCTTGACGCTGCTG", "UniProt Q14653, sequence (whole entry, unmodified, looked up)": "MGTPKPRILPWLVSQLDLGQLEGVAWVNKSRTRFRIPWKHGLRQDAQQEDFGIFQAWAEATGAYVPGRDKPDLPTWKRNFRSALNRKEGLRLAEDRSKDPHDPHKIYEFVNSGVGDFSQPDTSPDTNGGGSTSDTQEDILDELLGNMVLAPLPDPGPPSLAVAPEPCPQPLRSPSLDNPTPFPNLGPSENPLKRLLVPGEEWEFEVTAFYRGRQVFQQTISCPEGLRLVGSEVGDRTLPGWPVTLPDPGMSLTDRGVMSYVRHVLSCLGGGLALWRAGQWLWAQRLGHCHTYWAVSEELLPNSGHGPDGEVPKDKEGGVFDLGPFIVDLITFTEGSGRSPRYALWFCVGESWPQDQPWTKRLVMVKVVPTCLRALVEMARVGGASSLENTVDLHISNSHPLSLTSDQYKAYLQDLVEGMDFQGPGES"}
{"Oligonucleotide": "TCCAGGCTGGTCTCTAACTCAGTGCTA", "fitted relative affinity [z-score]": -0.388}
{"Oligonucleotide": "GACGGTCTCGACACTGGGGACGTGCTA", "fitted relative affinity [z-score]": -0.11}
{"Oligonucleotide": "TCATATGTGACCTTTTTAACTGTGCTA", "fitted relative affinity [z-score]": 2.39}
{"Oligonucleotide": "GGCTCTCAGTGGGCTGCTGGGTGCTAG", "fitted relative affinity [z-score]": -1.04}
{"Oligonucleotide": "TCATTTTGCTTTCTTTTACTGTGCTAG", "fitted relative affinity [z-score]": 2.97}
{"Oligonucleotide": "TCATTTCTCTATTGCTTACTGTGCTAG", "fitted relative affinity [z-score]": 2.5}
{"Oligonucleotide": "TCAAAGATTCCTCTCACACTGTGCTAG", "fitted relative affinity [z-score]": 0.25}
{"Oligonucleotide": "TTAGATCTCAGTTTCTATTAGTGCTAG", "fitted relative affinity [z-score]": 2.11}
{"Oligonucleotide": "TTAGTTTTCGGTATCGGTTAGTGCTAG", "fitted relative affinity [z-score]": 6.04}
{"Oligonucleotide": "TTAGGACTGCCTATCCTTTAGTGCTAG", "fitted relative affinity [z-score]": -0.152}
{"Oligonucleotide": "TCAGCTTTCTTTTATGCACTGTGCTAG", "fitted relative affinity [z-score]": 1.68}
{"Oligonucleotide": "TTAGATATCAGTTTCGCTTAGTGCTAG", "fitted relative affinity [z-score]": 4.46}
{"Oligonucleotide": "TCATATGTAATCATTCACACTGTGCTA", "fitted relative affinity [z-score]": 0.471}
{"Oligonucleotide": "TTCGATTTCGGGTTTCGATTAGTGCTA", "fitted relative affinity [z-score]": 3.65}
{"Oligonucleotide": "TCATCTGTTCTTTTCAGACTGTGCTAG", "fitted relative affinity [z-score]": 1.82}
{"Oligonucleotide": "CTCACTCTAATCTCACTCTGTGTGCTA", "fitted relative affinity [z-score]": 0.524}
{"Oligonucleotide": "TTAGATATCCGTCTCGATTAGTGCTAG", "fitted relative affinity [z-score]": 2.37}
{"Oligonucleotide": "GACGGTCTGGGTCTCGGGACGTGCTAG", "fitted relative affinity [z-score]": -0.713}
{"Oligonucleotide": "TTGCTTTCCTTTATGTACTCGTGCTAG", "fitted relative affinity [z-score]": 5.91}
{"data": "Sample 2", "target": "CCNA2, cyclin fold, Cln2 fusion (human)", "technique": "yeast growth competition, sequencing", "medium": "yeast", "setting": "strong parent motif", "reference": "not given", "direction": "higher = stronger binding", "parent": "PKN2 docking peptide (human); VSAVQKLDFSDTM; partner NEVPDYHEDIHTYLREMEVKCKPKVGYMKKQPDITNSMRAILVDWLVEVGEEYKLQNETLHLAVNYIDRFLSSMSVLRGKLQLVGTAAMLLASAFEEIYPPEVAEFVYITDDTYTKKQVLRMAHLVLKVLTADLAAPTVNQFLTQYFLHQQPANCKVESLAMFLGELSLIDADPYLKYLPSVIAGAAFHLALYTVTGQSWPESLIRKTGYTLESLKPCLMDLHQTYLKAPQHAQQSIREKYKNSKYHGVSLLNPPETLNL"}
{"Change": "A3M", "normalised enrichment score": 0.219}
{"Change": "V1Q", "normalised enrichment score": 2}
{"Change": "V4Y", "normalised enrichment score": 1.53}
{"Change": "Q5A L7A", "normalised enrichment score": -0.0128}
{"Change": "S2D", "normalised enrichment score": 0.235}
{"Change": "M13F", "normalised enrichment score": 1.28}
{"Change": "S10K", "normalised enrichment score": 0.739}
{"Change": "K6G", "normalised enrichment score": 0.241}
{"Change": "D8I", "normalised enrichment score": 1.95}
{"Change": "D8G", "normalised enrichment score": -0.449}
{"Change": "F9T", "normalised enrichment score": -0.26}
{"Change": "V1D", "normalised enrichment score": 0.177}
{"Change": "D11G", "normalised enrichment score": 2.67}
{"Change": "K6R", "normalised enrichment score": 3.25}
{"data": "Sample 3", "target": "RING finger protein unkempt homolog, zinc fingers 1-6, SBP tag (UNK, Homo sapiens, UniProt Q9C0B0, residues 30-357)", "technique": "RNA Bind-n-Seq", "form": "RNA", "medium": "in vitro", "concentration": "100 nM", "setting": "RNA with constant flanks, vertebrate orthologous sites, ends assumed", "reference": "input RNA pool", "direction": "higher = stronger binding", "all sequences stand within": "GGGAGUUCUACAGUCCGACGAUC … CAACAGAGGAUUGAGCAUCA", "UniProt Q9C0B0, sequence (30-357, looked up)": "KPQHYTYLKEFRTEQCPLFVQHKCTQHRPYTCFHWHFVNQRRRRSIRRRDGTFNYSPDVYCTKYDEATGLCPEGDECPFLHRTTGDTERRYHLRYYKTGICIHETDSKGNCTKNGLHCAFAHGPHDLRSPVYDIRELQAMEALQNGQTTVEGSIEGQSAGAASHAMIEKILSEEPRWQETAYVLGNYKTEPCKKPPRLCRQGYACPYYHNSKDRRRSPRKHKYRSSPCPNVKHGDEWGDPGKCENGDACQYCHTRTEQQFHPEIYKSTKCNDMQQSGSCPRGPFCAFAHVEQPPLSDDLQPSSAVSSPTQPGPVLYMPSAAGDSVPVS"}
{"Oligonucleotide": "CCAUAUUUAGAGAACAUUUGAGAAGGUUCUCUAGAUUUGCUGGAUUUUAUUAGGUUUGAGCUUUAUUCUUUAGAGAUUUGAUAACAUUACUCCCAAUUUCCAGGUUUUUUUUAUUGAGCA", "bound/input enrichment [ratio]": 0.616}
{"Oligonucleotide": "ACUAAUUCUAGAGUAGUAUAUGUUUCAUAAAAAGAUGUCUUUAUAAUUGUGUUUGUCAUAUAGUAUUUUGCAAUUUGUACAAUAAGGAUGUUUAGUAGCCAUAUCUUAAUGGCUUUUUUA", "bound/input enrichment [ratio]": 0.905}
{"Oligonucleotide": "UUCAGGCACAACUGACUGGUUCUCAACAUUCCUUACAUAAUUAUCUAUCAAAUGCAAGUGUAGUUAAUUUUCAGGAAACAACCAGGCAGUCAUCUUUAUCCUGCAGCCCGGGUGGAAAUU", "bound/input enrichment [ratio]": 0.448}
{"Oligonucleotide": "CUGCUGUGGUUUCUAUUAUUUCCUCUGUUUAGAAUAUUUCGUAUGCUAAAGUCCCAACUCUCUAGUUUUUGAUGGAAUUGCUAUAUUGACAGUUCUCACCUAAGUGCUUUGACAAAGAGC", "bound/input enrichment [ratio]": 1.79}
{"Oligonucleotide": "GGUCAUUUAUAGCAAUUAGAGCGGGUUGCCCCUCUACUUCUCCCAAGAAGAAAUCCCAAACAGAUUCCUUUCAUGUCGGAUUAUACUGUUCUGAUUUUAUUUUCUAUUUUUACAUAUACA", "bound/input enrichment [ratio]": 0.793}
{"Oligonucleotide": "UAUUCAUUUGAUUAAAAUUAUUUAGAUAAGAAAUCAUUACUGUUUAGCUUUGCUUUCAGACAGUGUAUCCUAUUAUUUAUCCAUUUUGCAAAAUAUCACUUGUGUGUGGUUUCUUAACAU", "bound/input enrichment [ratio]": 0.557}
{"Oligonucleotide": "GUCCUUUCGCUGAGUCCCCGGCCAGGGUGGCGGGGCCAAGGUUUCACCGAGGAACUGCAUUUCAAAAAAAAACUAUUUUUAAUUGUGGUACAGGAAGCGACGUUGCUGAAACAGCCUCUG", "bound/input enrichment [ratio]": 0.347}
{"Oligonucleotide": "GCAAUGAAAAUUCAGCCCUUCUCCCAGCCCCUUUUUUACUAGGAGAUACAAACGUUACCAUAGAAGAGCAAUUAAACUCAAUAAAUUUAUCUUUUCAGGAUGAUCCAGACUCCAGUACCA", "bound/input enrichment [ratio]": 1.66}
{"data": "Sample 4", "target": "ABI1, truncated, D143A, DHFR fusion (Arabidopsis thaliana)", "technique": "DHFR PCA, deep sequencing", "medium": "yeast", "setting": "methotrexate growth selection, single substitutions", "added": "(+)-ABA 0.0091 µM", "reference": "wild-type fitted maximum", "direction": "higher = stronger binding", "parent": "PYL1, truncated, DHFR fusion (Arabidopsis thaliana); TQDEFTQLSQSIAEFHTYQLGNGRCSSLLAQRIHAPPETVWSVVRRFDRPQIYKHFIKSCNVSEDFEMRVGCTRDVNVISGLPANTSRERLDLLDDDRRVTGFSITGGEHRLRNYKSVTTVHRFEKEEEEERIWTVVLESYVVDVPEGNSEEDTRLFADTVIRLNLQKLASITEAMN; partner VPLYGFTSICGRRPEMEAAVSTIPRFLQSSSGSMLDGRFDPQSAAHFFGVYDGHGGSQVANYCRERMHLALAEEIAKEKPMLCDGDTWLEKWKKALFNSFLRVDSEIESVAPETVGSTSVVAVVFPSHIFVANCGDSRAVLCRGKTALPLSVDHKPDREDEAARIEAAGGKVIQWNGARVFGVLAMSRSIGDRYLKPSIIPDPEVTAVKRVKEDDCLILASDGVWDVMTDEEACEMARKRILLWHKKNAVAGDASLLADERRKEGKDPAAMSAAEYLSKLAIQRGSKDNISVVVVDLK"}
{"Change": "R123F", "relative binding score": "-9.71%"}
{"Change": "S104K", "relative binding score": "-7.46%"}
{"Change": "N61H", "relative binding score": "46.2%"}
{"Change": "L169P", "relative binding score": "2.92%"}
{"Change": "M68H", "relative binding score": "-0.572%"}
{"Change": "Y53E", "relative binding score": "-2.91%"}
{"Change": "D92F", "relative binding score": "1.42%"}
{"Change": "R45A", "relative binding score": "2.12%"}
{"Change": "V76L", "relative binding score": "5.27%"}
{"Change": "T39I", "relative binding score": "54.3%"}
{"Change": "E174P", "relative binding score": "-0.334%"}
{"Change": "R111Q", "relative binding score": "4.13%"}
{"Change": "F66V", "relative binding score": "1.31%"}
{"Change": "R45F", "relative binding score": "-5.14%"}
{"Change": "L93C", "relative binding score": "0.472%"}
{"note": "A few entries again (sample 3):"}
{"Oligonucleotide": "CUGCUGUGGUUUCUAUUAUUUCCUCUGUUUAGAAUAUUUCGUAUGCUAAAGUCCCAACUCUCUAGUUUUUGAUGGAAUUGCUAUAUUGACAGUUCUCACCUAAGUGCUUUGACAAAGAGC", "bound/input enrichment [ratio]": 1.79}
{"Oligonucleotide": "GGUCAUUUAUAGCAAUUAGAGCGGGUUGCCCCUCUACUUCUCCCAAGAAGAAAUCCCAAACAGAUUCCUUUCAUGUCGGAUUAUACUGUUCUGAUUUUAUUUUCUAUUUUUACAUAUACA", "bound/input enrichment [ratio]": 0.793}
{"Oligonucleotide": "UAUUCAUUUGAUUAAAAUUAUUUAGAUAAGAAAUCAUUACUGUUUAGCUUUGCUUUCAGACAGUGUAUCCUAUUAUUUAUCCAUUUUGCAAAAUAUCACUUGUGUGUGGUUUCUUAACAU", "bound/input enrichment [ratio]": 0.557}
{"Oligonucleotide": "GUCCUUUCGCUGAGUCCCCGGCCAGGGUGGCGGGGCCAAGGUUUCACCGAGGAACUGCAUUUCAAAAAAAAACUAUUUUUAAUUGUGGUACAGGAAGCGACGUUGCUGAAACAGCCUCUG", "bound/input enrichment [ratio]": 0.347}
